{"data": "Assay results of several laboratories", "note": "Parts stem from different laboratories: compare values within a part only."}
{"data": "Study 1", "target": "Prothrombin, mature alpha-thrombin (F2, Homo sapiens, UniProt P00734)", "method": "aptamer microarray, sandwich", "form": "DNA with 2'F-ANA", "medium": "in vitro", "concentration": "200 nM", "setting": "whole 15-mer aptamer, many near background", "with": "Cy3 exosite-II aptamer, 400 nM", "reading": "higher = stronger binding"}
{"Strand": "GGTTGGTGTGGTTGG (2'F-ANA at 2 3 6 8 9 10 13 14)", "mean fluorescence intensity [a.u.]": 245}
{"Strand": "GGTTGGTGTGGTTGG (2'F-ANA at 1 2 3 6 9 10)", "mean fluorescence intensity [a.u.]": 64.5}
{"Strand": "GGTTGGTGTGGTTGG (2'F-ANA at 1 3 4 6 7 8 9 11 13)", "mean fluorescence intensity [a.u.]": 135}
{"Strand": "GGTTGGTGTGGTTGG (2'F-ANA at 1 2 4 6 8 10 11)", "mean fluorescence intensity [a.u.]": 51.4}
{"data": "Study 2", "target": "Interferon regulatory factor 5, full length, phosphomimetic (IRF5, Homo sapiens, UniProt Q13568-2, residues 1-514, K96S/S451D/S453D/S456D/S462D)", "method": "protein-binding microarray", "form": "double-stranded DNA, one strand shown", "medium": "in vitro", "concentration": "250 nM", "setting": "60-bp whole probe", "with": "salmon DNA 0.4 mg/ml", "relative to": "random background probes", "reading": "higher = stronger binding", "constant ends, left off below": "GCCTAGCAC … GTCTTGATTCGCTTGACGCTGCTG"}
{"Strand": "TTAGGACTGGACTTTCCGTTAGTGCTA", "log fluorescence": "0.384 z-score"}
{"Strand": "TTAGGTATCGTACTGCTTTAGTGCTAG", "log fluorescence": "0.894 z-score"}
{"Strand": "GACGATTTCGGGTATCGACACGTGCTA", "log fluorescence": "4.73 z-score"}
{"Strand": "AGGCATCTCGGAGATCTCGAAGTGCTA", "log fluorescence": "-0.393 z-score"}
{"Strand": "GACGAACTGAGTTTGGAGACGTGCTAG", "log fluorescence": "-0.372 z-score"}
{"data": "Study 3", "target": "Histone acetyltransferase KAT6A, winged helix 2, GST fusion (KAT6A, Homo sapiens, UniProt Q92794, residues 85-181)", "method": "protein binding microarray", "form": "double-stranded DNA, one strand shown", "medium": "in vitro", "concentration": "not given", "setting": "8-mer, flanks averaged, mean of 2 arrays, mostly near background", "relative to": "not given", "reading": "higher = stronger binding", "Target sequence (chain)": "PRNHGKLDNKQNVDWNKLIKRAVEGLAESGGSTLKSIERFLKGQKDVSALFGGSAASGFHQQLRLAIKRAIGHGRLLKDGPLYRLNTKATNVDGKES"}
{"Strand": "GCGGCGCA", "E-score": 0.102}
{"Strand": "AACAGGAT", "E-score": -0.0976}
{"Strand": "CAGATTTA", "E-score": 0.0156}
{"Strand": "AAACTATG", "E-score": -0.182}
{"data": "Mixed results"}
{"Molecule": "PhoQ, residues 284 288 289 292 302 303 AGGCYF", "target": "PhoP, residues 12 14 15 18 19 SPWRL (Escherichia coli, UniProt P23836)", "assay": "Sort-seq, item: YFP reporter", "system": "E. coli", "conditions": "PhoQ-PhoP variant library, with: 10 µM Mg2+", "how to read": "relative to: high Mg2+ state, higher = stronger signaling", "quantity": "fold induction", "result": 0.845}
{"note": "A few entries again (study 1):"}
{"Strand": "GGTTGGTGTGGTTGG (2'F-ANA at 1 2 3 6 9 10)", "mean fluorescence intensity [a.u.]": 64.5}
